# Published values gathered from unrelated publications.
# Lines come from different studies, so protocols differ. “And” joins repeats or separate records; there may be more than shown. ± marks the error that the study gave.
# BCHE: Cholinesterase (BCHE, Equus caballus, UniProt P81908)
# Chain of UniProt P81908 (whole entry, looked up): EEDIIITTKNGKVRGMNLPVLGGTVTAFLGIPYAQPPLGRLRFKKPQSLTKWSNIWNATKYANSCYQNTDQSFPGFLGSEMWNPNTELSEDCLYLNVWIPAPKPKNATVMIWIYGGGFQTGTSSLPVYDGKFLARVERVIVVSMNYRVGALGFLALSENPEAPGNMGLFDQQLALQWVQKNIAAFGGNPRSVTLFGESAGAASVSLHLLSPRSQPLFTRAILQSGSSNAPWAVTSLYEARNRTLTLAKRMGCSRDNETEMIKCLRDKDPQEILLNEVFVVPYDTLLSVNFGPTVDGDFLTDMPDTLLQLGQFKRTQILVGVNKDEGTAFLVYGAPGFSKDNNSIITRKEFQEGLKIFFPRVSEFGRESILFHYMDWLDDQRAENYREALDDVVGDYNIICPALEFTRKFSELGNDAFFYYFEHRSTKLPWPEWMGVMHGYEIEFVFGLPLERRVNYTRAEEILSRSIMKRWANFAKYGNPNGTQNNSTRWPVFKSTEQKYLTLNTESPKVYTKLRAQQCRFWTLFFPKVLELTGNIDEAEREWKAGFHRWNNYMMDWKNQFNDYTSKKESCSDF
# Chain of UniProt P80457 (whole entry, looked up): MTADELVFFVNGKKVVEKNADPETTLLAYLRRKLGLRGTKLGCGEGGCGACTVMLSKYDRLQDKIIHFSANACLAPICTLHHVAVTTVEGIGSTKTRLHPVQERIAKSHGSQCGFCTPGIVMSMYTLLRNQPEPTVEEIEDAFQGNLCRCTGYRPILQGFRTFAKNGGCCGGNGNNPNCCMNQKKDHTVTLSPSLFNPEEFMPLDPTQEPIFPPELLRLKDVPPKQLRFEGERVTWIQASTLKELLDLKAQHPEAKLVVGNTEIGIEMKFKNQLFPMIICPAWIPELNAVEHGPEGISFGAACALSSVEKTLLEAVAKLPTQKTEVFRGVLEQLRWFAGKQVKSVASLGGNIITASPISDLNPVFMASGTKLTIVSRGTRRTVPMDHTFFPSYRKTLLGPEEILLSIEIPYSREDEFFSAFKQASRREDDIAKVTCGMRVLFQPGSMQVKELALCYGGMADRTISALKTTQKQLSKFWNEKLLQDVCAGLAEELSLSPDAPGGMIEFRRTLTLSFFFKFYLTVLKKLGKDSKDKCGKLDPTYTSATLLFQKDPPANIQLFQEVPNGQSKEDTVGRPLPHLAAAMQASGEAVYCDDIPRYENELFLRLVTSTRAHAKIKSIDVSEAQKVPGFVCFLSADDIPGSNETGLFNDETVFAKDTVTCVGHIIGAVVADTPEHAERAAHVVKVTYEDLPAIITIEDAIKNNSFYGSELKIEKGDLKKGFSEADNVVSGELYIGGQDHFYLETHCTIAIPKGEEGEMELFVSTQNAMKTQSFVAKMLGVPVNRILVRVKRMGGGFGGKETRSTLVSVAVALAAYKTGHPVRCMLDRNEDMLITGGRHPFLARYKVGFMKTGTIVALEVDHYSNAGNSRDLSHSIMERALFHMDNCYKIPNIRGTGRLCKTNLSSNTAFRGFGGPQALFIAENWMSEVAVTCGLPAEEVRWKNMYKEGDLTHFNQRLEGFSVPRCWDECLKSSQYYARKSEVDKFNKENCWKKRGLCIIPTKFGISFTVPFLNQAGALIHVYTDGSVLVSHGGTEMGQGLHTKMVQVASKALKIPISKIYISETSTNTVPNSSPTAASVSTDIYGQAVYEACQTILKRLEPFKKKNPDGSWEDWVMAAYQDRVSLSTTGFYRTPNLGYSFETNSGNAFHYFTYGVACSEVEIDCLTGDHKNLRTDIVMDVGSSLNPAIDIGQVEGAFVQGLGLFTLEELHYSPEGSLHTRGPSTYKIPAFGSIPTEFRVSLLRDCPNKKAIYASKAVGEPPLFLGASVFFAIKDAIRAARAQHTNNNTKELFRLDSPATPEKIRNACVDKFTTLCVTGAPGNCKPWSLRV
# Chain of UniProt Q14004 (whole entry, looked up): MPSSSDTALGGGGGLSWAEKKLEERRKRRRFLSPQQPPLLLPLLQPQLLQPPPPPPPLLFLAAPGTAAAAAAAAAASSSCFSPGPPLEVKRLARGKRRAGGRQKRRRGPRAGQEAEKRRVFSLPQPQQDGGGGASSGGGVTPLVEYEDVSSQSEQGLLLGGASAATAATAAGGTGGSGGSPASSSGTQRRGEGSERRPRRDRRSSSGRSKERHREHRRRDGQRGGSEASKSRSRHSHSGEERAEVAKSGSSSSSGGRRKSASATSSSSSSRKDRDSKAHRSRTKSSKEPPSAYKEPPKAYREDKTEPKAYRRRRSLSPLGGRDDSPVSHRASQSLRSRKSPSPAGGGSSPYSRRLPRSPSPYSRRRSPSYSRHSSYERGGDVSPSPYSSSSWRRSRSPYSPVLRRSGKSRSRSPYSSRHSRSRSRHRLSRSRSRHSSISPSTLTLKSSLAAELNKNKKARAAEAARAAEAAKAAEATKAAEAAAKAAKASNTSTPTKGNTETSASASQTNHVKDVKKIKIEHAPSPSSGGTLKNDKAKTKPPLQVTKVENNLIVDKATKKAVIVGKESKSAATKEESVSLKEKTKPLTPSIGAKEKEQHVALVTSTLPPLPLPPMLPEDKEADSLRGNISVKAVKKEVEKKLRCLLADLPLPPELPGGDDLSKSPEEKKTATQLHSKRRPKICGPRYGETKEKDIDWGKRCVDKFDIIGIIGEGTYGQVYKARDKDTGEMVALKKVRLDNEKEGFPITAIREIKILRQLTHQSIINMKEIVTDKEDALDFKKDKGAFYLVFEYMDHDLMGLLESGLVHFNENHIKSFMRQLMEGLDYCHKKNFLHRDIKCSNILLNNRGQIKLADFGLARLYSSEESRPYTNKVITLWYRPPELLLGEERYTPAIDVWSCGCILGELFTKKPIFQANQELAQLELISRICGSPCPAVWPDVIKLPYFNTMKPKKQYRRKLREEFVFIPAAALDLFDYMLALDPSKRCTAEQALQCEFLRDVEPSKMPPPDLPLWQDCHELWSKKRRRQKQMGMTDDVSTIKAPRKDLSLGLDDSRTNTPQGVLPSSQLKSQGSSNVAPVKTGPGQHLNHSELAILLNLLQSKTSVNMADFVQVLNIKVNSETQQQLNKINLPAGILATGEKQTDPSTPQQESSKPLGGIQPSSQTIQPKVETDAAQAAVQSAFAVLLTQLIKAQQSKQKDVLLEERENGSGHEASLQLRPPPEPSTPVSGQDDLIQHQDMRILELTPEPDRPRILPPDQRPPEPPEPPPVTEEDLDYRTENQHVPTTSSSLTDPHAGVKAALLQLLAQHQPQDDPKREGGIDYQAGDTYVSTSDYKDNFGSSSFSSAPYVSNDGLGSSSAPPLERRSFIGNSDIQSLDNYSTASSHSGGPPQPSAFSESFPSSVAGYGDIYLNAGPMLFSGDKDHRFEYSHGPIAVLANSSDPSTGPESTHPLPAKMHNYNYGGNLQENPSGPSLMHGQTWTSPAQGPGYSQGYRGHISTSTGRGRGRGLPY
# Chain of UniProt P09619 (whole entry, looked up): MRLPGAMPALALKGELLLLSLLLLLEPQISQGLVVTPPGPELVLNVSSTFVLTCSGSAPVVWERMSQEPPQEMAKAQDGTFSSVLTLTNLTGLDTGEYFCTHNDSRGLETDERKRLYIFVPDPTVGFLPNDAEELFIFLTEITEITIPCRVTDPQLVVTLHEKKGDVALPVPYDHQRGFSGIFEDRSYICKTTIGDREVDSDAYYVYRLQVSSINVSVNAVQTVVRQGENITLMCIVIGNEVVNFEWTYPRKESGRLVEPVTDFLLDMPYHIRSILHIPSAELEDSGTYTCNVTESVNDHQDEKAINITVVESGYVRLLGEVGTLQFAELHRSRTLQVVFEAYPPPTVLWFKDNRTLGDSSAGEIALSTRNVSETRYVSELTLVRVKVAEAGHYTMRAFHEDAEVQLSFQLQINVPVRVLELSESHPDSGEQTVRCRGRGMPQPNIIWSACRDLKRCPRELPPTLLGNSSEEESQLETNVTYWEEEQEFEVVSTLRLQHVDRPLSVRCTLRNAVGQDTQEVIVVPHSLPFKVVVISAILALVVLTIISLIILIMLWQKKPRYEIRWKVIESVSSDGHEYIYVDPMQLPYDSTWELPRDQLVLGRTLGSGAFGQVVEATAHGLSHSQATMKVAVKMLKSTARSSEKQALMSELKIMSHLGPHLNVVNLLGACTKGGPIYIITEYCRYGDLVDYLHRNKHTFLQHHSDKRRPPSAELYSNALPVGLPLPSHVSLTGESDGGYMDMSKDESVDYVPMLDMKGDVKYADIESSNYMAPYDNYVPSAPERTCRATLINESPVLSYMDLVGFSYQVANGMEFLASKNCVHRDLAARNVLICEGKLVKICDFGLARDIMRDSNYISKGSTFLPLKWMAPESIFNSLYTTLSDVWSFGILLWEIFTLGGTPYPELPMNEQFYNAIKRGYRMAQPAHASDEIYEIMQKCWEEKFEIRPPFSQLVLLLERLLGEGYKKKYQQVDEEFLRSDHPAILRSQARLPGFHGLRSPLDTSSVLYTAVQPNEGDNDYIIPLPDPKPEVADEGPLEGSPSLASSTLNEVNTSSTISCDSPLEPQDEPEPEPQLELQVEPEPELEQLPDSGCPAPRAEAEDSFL
# Chain of UniProt Q9Y6M4 (whole entry, looked up): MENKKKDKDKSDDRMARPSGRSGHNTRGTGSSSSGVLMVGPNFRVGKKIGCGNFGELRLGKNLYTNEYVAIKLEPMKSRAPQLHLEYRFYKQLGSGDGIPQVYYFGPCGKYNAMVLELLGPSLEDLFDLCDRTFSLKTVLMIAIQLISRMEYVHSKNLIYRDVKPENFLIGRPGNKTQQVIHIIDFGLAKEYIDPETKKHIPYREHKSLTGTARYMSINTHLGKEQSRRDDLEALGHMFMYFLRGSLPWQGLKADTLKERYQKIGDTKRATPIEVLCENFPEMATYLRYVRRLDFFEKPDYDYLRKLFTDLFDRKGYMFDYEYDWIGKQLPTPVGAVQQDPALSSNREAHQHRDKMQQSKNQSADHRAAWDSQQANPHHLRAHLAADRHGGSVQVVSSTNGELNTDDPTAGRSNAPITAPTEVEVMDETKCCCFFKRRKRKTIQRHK
Compound,tested on,assay,system,conditions,measurement,result
CC(=O)NC[C@@H]1[C@@H](O)C[C@H]2[C@H](O)C[C@@H](CO)N12,Spodoptera litura β-N-acetylglucosaminidase,,crude enzyme,"1.71 µM, run 1, with: p-nitrophenyl GlcNAc",inhibition,76.7%
Cc1cc(Nc2nc(C[C@@]3(C(=O)O)CCN(Cc4cccc(Cl)c4F)[C@H](C)C3)cc(C)c2F)[nH]n1,"HTR2A (Homo sapiens, UniProt P28223)",inhibitor,,10 µM,inhibition,-4.04%
O=C1c2ccccc2CCCN1CCCCN1CCN(c2cccc(Cl)c2Cl)CC1,"HTR2C (Homo sapiens, UniProt P28335)",radioligand binding,,"concentration not given, with: [3H]mesulergine",inhibition,95.5%
CN(C)[C@H]1C[C@@]23CC[C@@]4(O2)C(=CC[C@]2(C)[C@@H](c5ccc6ccncc6c5)CC[C@H]24)C=C3[C@@H](O)[C@@H]1O,"CDK13 (Homo sapiens, UniProt Q14004)","ATP probe labelling, inhibitor, KiNativ profiling",,1 µM,inhibition,1.3%
O=C1NC2(CC2)COc2ncc(F)cc2[C@H]2COCCN2c2ccn3ncc1c3n2,,,"Sprague-Dawley rat, male, blood","oral, 5 mg/kg/day, 4 weeks, end of treatment, subacute toxicity",lymphocyte percentage,76.8 ± 9.7%
CCOC(=O)[C@](CC)(CCCSCCOCCOCCNC(=O)c1ccc(-c2c3ccc(=N)c(S(=O)(=O)O)c-3oc3c(S(=O)(=O)O)c(N)ccc23)c(C(=O)O)c1)NC(=O)c1ccc(C2CC2)c(Cc2ccc(F)cc2)n1,"XDH (Bos taurus, UniProt P80457)","enzyme activity, inhibitor",,10 µM,inhibition,-6%
CC(C)[C@H]1NC(=O)C[C@H]2/C=C/CCSSC[C@@H](NC1=O)C(=O)N[C@H](Cc1cccc3ccccc13)C(=O)NCC(=O)O2,"Cyclin-dependent kinase 5, with p25 (CDK5, Homo sapiens, UniProt Q00535)","enzyme activity, inhibitor",,10 µM,inhibition,-2.5%
O=C(O)c1ccccc1/C=N/Nc1nc(-c2ccccc2Cl)cs1,LYN B kinase,"kinase activity, inhibitor",,1 µM,inhibition,15.4% and 12.2%
N#Cc1ccc(N2N=C3c4ccc(C(=O)O)cc4CCC3C2C2CCCC2)cc1Cl (stereo not shown),"DNMT1 (Homo sapiens, UniProt P26358)","enzyme activity, inhibitor",,10 µM,inhibition,7%
Cc1cc(OCC(=O)NCCNC(=O)c2cccc(COc3ccccc3C(N)=O)c2)c2c3c(c(=O)oc2c1)CCC3,"PARP2 (Homo sapiens, UniProt Q9UGN5)","enzyme activity, inhibitor",,0.104 µM,inhibition,100%
CN[C@@H]1[C@H](O)[C@H](NC)[C@H]2O[C@]3(O)[C@H](O[C@@H]2[C@H]1O)O[C@H](C)C[C@H]3NC(=O)Cc1cc(Cl)ccn1,"HRH3 (Homo sapiens, UniProt Q9Y5N1)","ligand displacement, radioligand",,10 µM,inhibition,1%
COc1ccc(F)cc1S(=O)(=O)Nc1cnc2c(c1)C(=O)NCCO2,N-type calcium channel,radioligand binding,,10 µM,inhibition,-2%
COc1cc2c(cc1OC)CNCC2,BCHE,"enzyme activity, inhibitor, Ellman",,20 µM,inhibition,39.6%
CS(C)(=O)=Nc1ccc(-c2ccc(-c3nc4cc(O[C@@H]5CO[C@H]6[C@@H]5OC[C@H]6O)[nH]c4cc3F)cc2)cc1,"MET (Homo sapiens, UniProt P08581, M1250T)","enzyme activity, inhibitor",,10 µM,inhibition,-47%
N[C@H](C(=O)N1CCCC1)C1CCN(c2nccc3c(-c4ncc(Cl)cc4Cl)cccc23)CC1,L-type calcium channel dihydropyridine site,"binding, radioligand binding",,10 µM,inhibition,4%
CN(/N=C/c1ccccc1C(=O)O)c1nc(-c2ccccc2Cl)cs1,"NEK9 (Homo sapiens, UniProt Q8TD19)","enzyme activity, inhibitor",,1 µM,inhibition,-15.3%
C1CCNC1,BCHE,"enzyme activity, inhibitor, Ellman",,20 µM,inhibition,45.9%
CN[C@@H]1[C@H](O)[C@H](NC)[C@H]2O[C@]3(O)[C@H](O[C@@H]2[C@H]1O)O[C@H](C)C[C@H]3NC(=O)Cc1ccc(Cl)cn1,"TACR1 (Homo sapiens, UniProt P25103)","ligand displacement, radioligand",,10 µM,inhibition,3%
COc1ccc2[nH]cc(CCN)c2c1,BCHE,"enzyme activity, inhibitor, Ellman",,20 µM,inhibition,37%
C[C@H](NCc1ccc(-c2ccc(C(F)(F)F)cc2)cc1)C(N)=O,"PDGFRB (Homo sapiens, UniProt P09619)","cell-free assay, competition with immobilised ligand",,1 µM,inhibition,0%
O=C(CN1CN(c2ccccc2)C2(CCN(C(=O)c3cnc4[nH]ncc4c3)CC2)C1=O)NCC(F)(F)F,"CSNK1G3 (Homo sapiens, UniProt Q9Y6M4)",inhibitor,,concentration not given,inhibition,< 50%
O=[N+]([O-])c1ccc(-n2cc(CCS(=O)(=O)F)nn2)cc1,BCHE,"enzyme activity, inhibitor, Ellman's method",horse serum BuChE,20 µM,inhibition,65.5 ± 0.4%

# Repeated from above:
Compound,tested on,assay,system,conditions,measurement,result
C[C@H](NCc1ccc(-c2ccc(C(F)(F)F)cc2)cc1)C(N)=O,"PDGFRB (Homo sapiens, UniProt P09619)","cell-free assay, competition with immobilised ligand",,1 µM,inhibition,0%
N[C@H](C(=O)N1CCCC1)C1CCN(c2nccc3c(-c4ncc(Cl)cc4Cl)cccc23)CC1,L-type calcium channel dihydropyridine site,"binding, radioligand binding",,10 µM,inhibition,4%
O=[N+]([O-])c1ccc(-n2cc(CCS(=O)(=O)F)nn2)cc1,BCHE,"enzyme activity, inhibitor, Ellman's method",horse serum BuChE,20 µM,inhibition,65.5 ± 0.4%
